Published values of several laboratories.
± gives the spread as reported.

Structure (SMILES)	target	test	test system	conditions	how to read	measurement	result
CCN(CCCCOc1ccc(CCC(=O)N2CCC(Cc3ccccc3)CC2)cc1OC)Cc1ccccc1	butyrylcholinesterase	dilution reversibility		0.1 × IC50, 120 min	reference: uninhibited enzyme	remaining activity	71.8%
CC(=O)N[C@@H](CNC(=O)c1cc(NC(=O)c2cc(NC(=O)c3cc(NC(=O)c4nccn4C)cn3C)cn2C)cn1C)CC(=O)Nc1cn(C)c(C(=O)Nc2cc(C(=O)Nc3cc(C(=O)Nc4cc(C(=O)NCCCN(C)CCCNC(=O)c5cccc(C(=O)O)c5)n(C)c4)n(C)c3)n(C)c2)n1	androgen response element DNA duplex	DNA binding		2 µM, pH 7.0	reference: DNA alone	ΔTm	16.1 °C
Cc1cc(C(=O)Nc2nc3cccc(C)c3n2[C@H]2CCCCN(C(=O)/C=C/CN(C)C)C2)ccn1	Trypanosoma brucei CLK1 wild type	differential scanning fluorimetry				thermal shift	12 °C
CC(=O)Nc1ccc2ccn(-c3cc(NC45CC6CC(CC(C6)C4)C5)n4ncc(C#N)c4n3)c2c1	CSNK2A1 and CSNK2A2, human	inactive, NanoBRET		10 µM		activity	inactive
CCC(=O)C[C@@H](O)C[C@@H](C)C[C@H](NC(=O)[C@@H]1C[C@H](C)CN1C(=O)/C=C/[C@@H](C)CC)C(=O)N[C@H](C(=O)NC(C)(C)C(=O)N[C@@H](CC(C)C)C(=O)N[C@@H](CC(C)C)C(=O)NC(C)(C)C(=O)NC(C)(C)C(=O)NCCC(=O)N[C@@H](C)CNC)[C@H](O)C(C)C	mTORC1	inhibitor, immunoblot	MDA-MB-453	100 nM, 2 h		4E-BP1 activation	decreased
CC(=O)N[C@H]1CNC(=O)c2cc(cn2C)NC(=O)c2cc(cn2C)NC(=O)c2cc(cn2C)NC(=O)c2nc(cn2C)NC(=O)C[C@@H](NC(C)=O)CNC(=O)c2cc(cn2C)NC(=O)c2cc(cn2C)NC(=O)c2cc(cn2C)NC(=O)c2nc(cn2C)NC(=O)C1	androgen response element DNA duplex	DNA binding		2 µM, pH 7.0	reference: DNA alone	ΔTm	22.1 °C
CCN(CC)CCCC(C)Nc1cc[n+]([Ru-]2[NH2+]CC[NH2+]2)c2cc(Cl)ccc12.Cc1ccc(C(C)C)cc1.F[P-](F)(F)(F)(F)F.F[P-](F)(F)(F)(F)F (stereo not shown)	calf thymus DNA	thermal denaturation		0.5 equivalents per DNA, 1 h, pH 7.39, 25 °C, 50 mM NaClO4		delta Tm	1.6 °C
Nc1c2c([n+](CCCCCCCCCC[n+]3c4c(c(N)c5ccccc53)CCC4)c3ccccc13)CCC2	SIVmac251.30 Env	inhibitor		concentration not given, low Env expression		cell-cell fusion	inhibited
CCCO[C@H]1[C@H](O)[C@@H](N)[C@@H](O[C@H]2[C@H](O[C@@H]3O[C@H](CO)[C@@H](O[C@H]4O[C@@H](CN)[C@@H](O)[C@H](O)[C@H]4N)[C@H]3O)[C@@H](O)[C@H](N)C[C@@H]2N)O[C@@H]1CO	rabbit reticulocyte ribosome	luciferase translation, cell-free translation	rabbit reticulocyte lysate			IC50	59.9 ± 30.1 µg/mL
Cl.Cl.Cl.Cl.Cl.Cl.Cl.Cl.Cl.Cl.Cl.Cl.NC[C@@H]1O[C@H](O[C@H]2[C@@H](O)[C@H](O[C@@H]3[C@@H](O)[C@H](N)C[C@H](N)[C@H]3O[C@H]3O[C@H](CN)[C@@H](O)[C@H](O)[C@H]3N)O[C@@H]2Cn2cc(-c3ccc(-c4cn(C[C@H]5O[C@@H](O[C@@H]6[C@@H](O)[C@H](N)C[C@H](N)[C@H]6O[C@H]6O[C@H](CN)[C@@H](O)[C@H](O)[C@H]6N)[C@H](O)[C@@H]5O[C@H]5O[C@@H](CN)[C@@H](O)[C@H](O)[C@H]5N)nn4)cc3)nn2)[C@H](N)[C@@H](O)[C@@H]1O	HIV-1 TAR RNA	UV thermal denaturation		1 molar equivalents to RNA, pH 6.8, TAR RNA 1 µM per strand	reference: RNA alone, higher is more stabilization	ΔTm	9.6 °C
O=C1c2cc(Cl)ccc2NC12CCCC2	butyrylcholinesterase			10 µM		remaining activity	73.6 ± 4.5%
C[C@H](N)C(=O)N[C@@H](CO)C(=O)N[C@@H](C)C(=O)N[C@H]1CSC(=O)[C@H](Cc2ccccc2)NC(=O)[C@H](Cc2ccc(O)cc2)NC(=O)[C@H](C)NC(=O)[C@H](C)NC1=O	AgrC-III	inhibitor, GFP reporter	Staphylococcus epidermidis, agr group-III reporter	100 nM		AgrC-III activity	inhibited
Cl.Cl.Cl.Cl.Cl.Cl.Cl.Cl.Cl.Cl.Cl.Cl.NC[C@@H]1O[C@H](O[C@H]2[C@@H](O)[C@H](O[C@@H]3[C@@H](O)[C@H](N)C[C@H](N)[C@H]3O[C@H]3O[C@H](CN)[C@@H](O)[C@H](O)[C@H]3N)O[C@@H]2Cn2cc(COCCCCCCCCOCc3cn(C[C@H]4O[C@@H](O[C@@H]5[C@@H](O)[C@H](N)C[C@H](N)[C@H]5O[C@H]5O[C@H](CN)[C@@H](O)[C@H](O)[C@H]5N)[C@H](O)[C@@H]4O[C@H]4O[C@@H](CN)[C@@H](O)[C@H](O)[C@H]4N)nn3)nn2)[C@H](N)[C@@H](O)[C@@H]1O	HIV-1 TAR RNA	UV thermal denaturation		1 molar equivalents to RNA, pH 6.8, TAR RNA 1 µM per strand		Tm	74.3 °C
CC[C@H](C)[C@H](NC(=O)[C@@H](NC(=O)[C@@H](NC(=O)[C@H](CCCNC(=N)N)NC(=O)[C@@H](N)CCCCN)C(C)C)C(C)C)C(=O)N[C@@H](CC(N)=O)C(=O)N[C@@H](CCCCN)C(=O)N[C@@H](CC(=O)O)C(=O)N[C@H](C(=O)O)[C@@H](C)O	Mamu-A2*01:02 (Chinese rhesus macaque)	MHC binding, purified MHC				IC50	> 20 µM
Cc1cc(Nc2nc(C[C@@]3(C(=O)O)CCN(Cc4cccc(Cl)c4F)[C@H](C)C3)cc(C)c2F)[nH]n1	AURKA (Thr288 phosphorylation), mouse	AURKA phosphorylation, inhibitor, item: phospho-AURKA Thr288	mouse, NCI-H446 xenograft, tumour	oral, 10 mg/kg single dose, 1 h		inhibition	89.4%
CC(=O)NCCCC[C@@H](NC(=O)[C@@H](N)Cc1ccc(O)cc1)C(=O)N[C@@H](Cc1ccccc1)C(=O)NCC(=O)N[C@@H](Cc1ccc(O)cc1)C(=O)N1CCC[C@H]1C(=O)N[C@@H](CO)C(N)=O	mu opioid receptor	radioligand binding			reference: IC50 delta over IC50 mu	selectivity ratio	15
N=C(N)NCCC[C@H](N)C(=O)N1CCC[C@H]1C(=O)N[C@@H](CCCCN)C(=O)N1CCC[C@H]1C(=O)N[C@@H](CCC(N)=O)C(=O)N[C@@H](CCC(N)=O)C(=O)N[C@@H](Cc1ccccc1)C(N)=O	MRGPRX2, human	Ca2+ mobilization, agonist, Fura-2	LAD2 IgE-sensitized	37 °C		EC50	38.7 µM
O=C1c2cc(Br)ccc2NC12CCCC2	butyrylcholinesterase			10 µM		remaining activity	76.3 ± 3.15%
NC(=O)[C@H](CO)NC(=O)[C@@H]1CCCN1C(=O)[C@H](Cc1ccc(O)cc1)NC(=O)CNC(=O)[C@H](Cc1ccccc1)NC(=O)[C@@H](CCCNC(=O)CBr)NC(=O)[C@@H](N)Cc1ccc(O)cc1	mu opioid receptor	radioligand binding			reference: IC50 delta over IC50 mu	selectivity ratio	3110
